Results pooled from the literature.
A part holds a random share of what one study measured.

Sample 1 — technique: protein-binding microarray; form: double-stranded DNA, one strand shown; matrix: in vitro; tested at: 940 nM top; notes: 60-bp whole probe; added: salmon DNA 0.4 mg/ml; reference: random background probes; direction: higher = stronger binding; constant ends, left off below: GCCTAGCAC … GTCTTGATTCGCTTGACGCTGCTG
Target: Interferon regulatory factor 5, full length, phosphomimetic (IRF5, Homo sapiens, UniProt Q13568-2, residues 1-514, S451D/S453D/S456D/S462D)
Sequence	fitted relative affinity [z-score]
GACGGTCTCCTAATGCTGACGTGCTAG	-0.183
TTAGGGCTCGGACTGGGTTAGTGCTAG	-0.605
GTGTGTCTGATTATTTACATGTGCTAG	-0.0501
TTAGGGCTGGGGTATCGGTTAGTGCTA	3.04
TTAGGACTGGGGTTTCGGATAGTGCTA	2.14
TTAGGTATCGGACTGTGTTAGTGCTAG	3.74
GACGGTGTCCTACTGCTGACGTGCTAG	-0.61
TCAGGACTGGGTATCGGTTAGTGCTAG	3.87
GACGAACTGGGGTTTCGACACGTGCTA	2.36
TTAGGTATCGTGTTTCGGTTAGTGCTA	5.23
TCACTTTGCTTTCTCCCACTGTGCTAG	1.74
GGTTTTCTCTATTGCTTTCTGTGCTAG	3.16
TTAGGTCTCGGACTGAGTTAGTGCTAG	1.11
TCATTTTGTGTTTTCATACTGTGCTAG	1.01
TTAGGTTTCCTTACCCTTTAGTGCTAG	1.75
TCTGATTTTGCTTTCATTTAGTGCTAG	1.64
TTAGATTTCAGTATCAATTAGTGCTAG	1.76
TTAGGTTTCGGGTCTCGGTTAGTGCTA	10.1
TTGCTTCTATAGGCTAGAATCGTGCTA	-0.636

Sample 2 — technique: universal PBM; form: double-stranded DNA, one strand shown; matrix: in vitro; tested at: 600 nM; direction: higher = stronger binding
Target: Sal-like protein 4, full length isoform A (SALL4, Homo sapiens, UniProt Q9UJQ4, residues 1-1053)
Sequence of UniProt Q9UJQ4 (whole entry, looked up): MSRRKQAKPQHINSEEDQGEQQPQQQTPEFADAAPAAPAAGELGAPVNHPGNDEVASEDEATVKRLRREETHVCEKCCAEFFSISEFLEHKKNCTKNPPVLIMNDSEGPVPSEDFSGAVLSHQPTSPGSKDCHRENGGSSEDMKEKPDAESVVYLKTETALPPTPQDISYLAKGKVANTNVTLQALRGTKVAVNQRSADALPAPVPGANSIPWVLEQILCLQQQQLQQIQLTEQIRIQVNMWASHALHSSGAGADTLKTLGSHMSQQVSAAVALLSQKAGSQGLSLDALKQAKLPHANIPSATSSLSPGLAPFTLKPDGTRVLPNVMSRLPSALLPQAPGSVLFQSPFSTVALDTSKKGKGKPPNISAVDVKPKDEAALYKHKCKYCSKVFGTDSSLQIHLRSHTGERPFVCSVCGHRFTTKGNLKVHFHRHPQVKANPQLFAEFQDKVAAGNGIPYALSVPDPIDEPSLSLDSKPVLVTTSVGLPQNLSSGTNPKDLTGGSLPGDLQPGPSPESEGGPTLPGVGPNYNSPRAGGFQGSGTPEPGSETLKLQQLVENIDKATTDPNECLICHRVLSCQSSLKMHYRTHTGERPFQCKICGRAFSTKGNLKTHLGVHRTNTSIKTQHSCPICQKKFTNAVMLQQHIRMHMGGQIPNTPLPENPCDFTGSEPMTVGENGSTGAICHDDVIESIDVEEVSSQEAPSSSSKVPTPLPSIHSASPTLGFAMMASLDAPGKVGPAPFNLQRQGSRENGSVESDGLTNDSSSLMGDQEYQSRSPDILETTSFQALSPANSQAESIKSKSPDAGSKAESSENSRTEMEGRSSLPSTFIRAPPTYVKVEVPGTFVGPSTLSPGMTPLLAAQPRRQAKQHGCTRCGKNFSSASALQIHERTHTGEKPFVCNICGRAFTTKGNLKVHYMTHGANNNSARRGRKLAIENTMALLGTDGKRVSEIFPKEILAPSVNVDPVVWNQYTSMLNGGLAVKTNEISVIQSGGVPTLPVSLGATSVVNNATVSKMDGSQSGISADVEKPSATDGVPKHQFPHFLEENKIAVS
Notes: 8-mer, flanks averaged, mean of replicates
Sequence	E-score
AAGGACAC	-0.0297
AAGGGAAG	0.161
CTCTCCCA	-0.0731
CATGCCGC	-0.087
GAATTGCA	0.0892
GTCCCCAC	-0.34
GTTCGTAA	0.186
CTAAAATA	0.324
CCCCTATA	0.0743
GATGGATA	0.112
ATAGAGGG	0.0762
CTGACCAA	-0.0469
CGACCTCG	-0.168
ACTTCAGG	0.0385
CCCGAACG	-0.309
ACGTGAAC	-0.183
GAGAAATC	0.0818
AGACCGTA	-0.0808
TAGCCCTA	-0.0225
CCCATAGC	-0.0991
AGGCGAAG	-0.116
AACTATAA	0.339
GCAGTCAC	-0.124
AGTTAATC	0.165
ACCGCCCA	-0.33

Sample 3 — technique: RNA Bind-n-Seq; form: RNA; matrix: in vitro; tested at: 365 nM; reference: no-protein control; direction: higher = stronger binding
Target: RNA binding protein fox-1 homolog 2, RRM domain, GST-SBP tag (RBFOX2, Homo sapiens, UniProt O43251-10, residues 100-194)
Notes: natural RNA segment, single round, ends assumed
Constant ends, left off below: GGGAGUUCUACAGUCCGACGAUC … UGGAAUUCUCGGGUGCCAA
Target sequence (chain): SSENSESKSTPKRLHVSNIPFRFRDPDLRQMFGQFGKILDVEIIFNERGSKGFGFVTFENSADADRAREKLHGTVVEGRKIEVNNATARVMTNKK
Sequence	RBNS enrichment (R)
AGUGCCUAGUGGAACUGUCCACCCAGCCAGCCACUGUGUGUUAUGGUUCUGCAACCACCAGGGAGGCAGCCCGAGGUGAUGCUGCUCACCGCGCCCUACAGUACCUCAGG	0.407
UGUCAAACCAUGAUGUUGUCAUUGAGCAGUAGCUCAUGAGCAAUGGCAUGUCUUUCUCCCCUGACCCCAAUCUAUUUUAAUAAAGCAGAGUAGUCAUAGUGUUGAAAGAA	0.249
UUAAAAAUGCUCUGCAUUUCUUCCAGUGCAAUGAAAUUCAUAUGGUGUCCCACCUUAUUUAAUGAUGGUACAAUUGAAAAUAUUAAAAUCUUAGUCAACCUCUGUAGAAA	0.397
GGGUGGGGGGAAAUCACUGUUUGUUUUUAAAAGCAAAUCUUUUGUAAACAGAAUAAAAGUUCCUCUCCCUUCCCUUCCCUCACCCCUGAUAUGUACCCUUUCCACCCCUU	0.282
AUCUUUCCAACCAGCAUCCCAGACCUCGGACUCUUGAAGGGAAAAGAGUCUAACUCCCUCCUCCCUAGGGAUUCCUACCCCACAAAGGUCUCAUGGACCAUAGAACUCAC	1.5
GUUAGCAUGUGCAAUAGGAACUACUGGUUUGCUGUGUAAAUGGAUGUCAGGAUCCAGCAAAACUACUGCUUUCUUCUCCAAAGACAUGUGGGAGCCUUCAAUCCUCAGUG	4.41
CAUUUCUUGGCAUUGGAAUUCUACUGGAAAAAAAUACAAAAAGCAAAACAAAACCCUCAGCACUGUUACAAGAGGCCAUUUAAGUAUCUUGUGCUUCUUCACUUACCCAU	1.21
CUCUGAGGCAUUGUGGUGGUCCCUUGUCUGAUAAAUAAAUAAUGAAUAAAUAAAAGUUAUAUCAGACAGUACUGACAGACAAUAAAGAAACCCCCCCCCCAGGGUGCCCA	0.54

Sample 4 — technique: RNA Bind-n-Seq; form: RNA; matrix: in vitro; tested at: 1 µM; notes: whole 134-nt RNA, ends assumed; added: 150 mM KCl; reference: input library; direction: higher = stronger binding
Target: Ras GTPase-activating protein-binding protein 1, RRM domain (G3BP1, Homo sapiens, UniProt Q13283)
Sequence of UniProt Q13283 (whole entry, looked up): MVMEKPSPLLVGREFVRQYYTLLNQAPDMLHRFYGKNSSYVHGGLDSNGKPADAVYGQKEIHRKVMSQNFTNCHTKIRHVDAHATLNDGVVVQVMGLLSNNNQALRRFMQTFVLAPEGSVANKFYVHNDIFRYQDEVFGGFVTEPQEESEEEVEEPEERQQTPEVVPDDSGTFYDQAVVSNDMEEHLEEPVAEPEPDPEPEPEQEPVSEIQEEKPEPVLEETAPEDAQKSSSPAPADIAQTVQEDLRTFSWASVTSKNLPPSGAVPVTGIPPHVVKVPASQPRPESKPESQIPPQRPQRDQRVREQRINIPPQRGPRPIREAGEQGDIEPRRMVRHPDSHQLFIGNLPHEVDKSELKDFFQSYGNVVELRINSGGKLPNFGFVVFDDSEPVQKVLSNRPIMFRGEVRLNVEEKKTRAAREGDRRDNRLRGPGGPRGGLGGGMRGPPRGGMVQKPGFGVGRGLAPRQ
Constant ends, left off below: GGGAGUUCUACAGUCCGACGAUC … UGGAAUUCUCGGGUGUCAAGG
Sequence	log2 enrichment
UACUGCUCCUCAGCAGGAAGCGGAUGCUGAGGUGAACACAGAAACACUAAAUAAGUCCUCCCAGGGGAGCUCCUCGAGCACACAAUCAGC	-0.0381
AGUCCUGUGCUACACAUCGUAUGUACCGAAUCGGGUGGGUUUUUUUGGGAAAAAGGGAAAGUAUUAUGUUACGCCGUUCGGAUCUGCACU	0.621
CACAGACAACACGCACCCAGACAGACACAGAGGGAAGGGGUUGGGAUGGGGACAGGGUGCACAGCAGGGCGGGGUAGGACCCCAGCCCCU	-0.0691
CAAGUCCUGUGCUACACAUCGUAUGUACCGAAUCGGGUUUUUGGGUUUGGGAGGGAAAGUAUUAUGUUACGCCGUUCGGAUCUGCACUUC	0.423
UGUACAAACACUUUCCCAUCCCCCUCAUUAACCGGCUGGAGAAGCACUAUCUGGAUAUCAACACGGUGCUGGAGAAAUGGCAGAAGAGCA	-0.111
AAGUCCUGUGCUACACAUCGUAUGUACCGAAUCGGGAGGGAAAGGGUUUUUUUGGGAAAGUAUUAUGUUACGCCGUUCGGAUCUGCACUU	0.52
GUCCUGUGCUACACAUCGUAUGUACCGAAUCGGGGAAAAAGGGGAAAAAGGGAAAAAGGAAAGUAUUAUGUUACGCCGUUCGGAUCUGCA	-0.0777
CUCAAGUCCUGUGCUACACAUCGUAUGUACCGAAUCGGUUUUUGGUGGAAAGGAAAGUAUUAUGUUACGCCGUUCGGAUCUGCACUUCCA	-0.222
CUCAAGUCCUGUGCUACACAUCGUAUGUACCGAAUCGGCCCGGCCCGGCCCGGAAAGUAUUAUGUUACGCCGUUCGGAUCUGCACUUCCA	-1.18

A few entries again (sample 2):
Sequence	E-score
GAATTGCA	0.0892
GCAGTCAC	-0.124
AGGCGAAG	-0.116
TAGCCCTA	-0.0225
CCCATAGC	-0.0991
AGACCGTA	-0.0808
GTCCCCAC	-0.34
